Measured values collected from several papers.
Numbered parts are unrelated; each lists some results of a single study. Several values in a cell are separate wells, animals, samples, runs or records.
Chain of UniProt P42336 (whole entry, unmodified, looked up): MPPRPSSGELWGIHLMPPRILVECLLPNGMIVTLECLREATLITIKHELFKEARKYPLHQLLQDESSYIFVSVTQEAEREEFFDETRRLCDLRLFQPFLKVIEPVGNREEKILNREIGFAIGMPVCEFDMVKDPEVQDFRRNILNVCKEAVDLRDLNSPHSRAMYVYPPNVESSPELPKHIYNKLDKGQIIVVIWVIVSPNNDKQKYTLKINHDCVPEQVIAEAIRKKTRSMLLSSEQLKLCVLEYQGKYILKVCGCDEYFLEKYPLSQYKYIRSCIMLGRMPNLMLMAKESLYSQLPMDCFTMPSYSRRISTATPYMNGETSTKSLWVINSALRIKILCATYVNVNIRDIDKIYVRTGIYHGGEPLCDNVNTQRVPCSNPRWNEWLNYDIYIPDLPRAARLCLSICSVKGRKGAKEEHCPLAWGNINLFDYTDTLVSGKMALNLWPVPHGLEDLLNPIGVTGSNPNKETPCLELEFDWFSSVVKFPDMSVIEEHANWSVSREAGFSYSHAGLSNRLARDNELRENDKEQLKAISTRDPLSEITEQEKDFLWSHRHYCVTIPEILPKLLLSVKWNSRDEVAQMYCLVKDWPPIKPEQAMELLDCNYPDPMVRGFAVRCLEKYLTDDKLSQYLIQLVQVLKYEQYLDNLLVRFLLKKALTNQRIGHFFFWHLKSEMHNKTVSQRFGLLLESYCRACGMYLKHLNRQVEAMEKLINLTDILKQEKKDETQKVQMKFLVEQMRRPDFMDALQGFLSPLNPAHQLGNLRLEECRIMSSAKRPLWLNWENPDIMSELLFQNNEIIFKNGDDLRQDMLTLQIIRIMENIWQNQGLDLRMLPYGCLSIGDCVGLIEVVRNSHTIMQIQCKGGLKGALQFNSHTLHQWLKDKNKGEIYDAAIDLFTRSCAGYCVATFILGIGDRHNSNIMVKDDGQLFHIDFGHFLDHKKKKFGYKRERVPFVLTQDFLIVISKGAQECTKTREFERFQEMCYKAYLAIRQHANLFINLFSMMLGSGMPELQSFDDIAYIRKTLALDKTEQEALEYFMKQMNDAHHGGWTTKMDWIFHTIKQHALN
Chain of UniProt P54753 (whole entry, looked up): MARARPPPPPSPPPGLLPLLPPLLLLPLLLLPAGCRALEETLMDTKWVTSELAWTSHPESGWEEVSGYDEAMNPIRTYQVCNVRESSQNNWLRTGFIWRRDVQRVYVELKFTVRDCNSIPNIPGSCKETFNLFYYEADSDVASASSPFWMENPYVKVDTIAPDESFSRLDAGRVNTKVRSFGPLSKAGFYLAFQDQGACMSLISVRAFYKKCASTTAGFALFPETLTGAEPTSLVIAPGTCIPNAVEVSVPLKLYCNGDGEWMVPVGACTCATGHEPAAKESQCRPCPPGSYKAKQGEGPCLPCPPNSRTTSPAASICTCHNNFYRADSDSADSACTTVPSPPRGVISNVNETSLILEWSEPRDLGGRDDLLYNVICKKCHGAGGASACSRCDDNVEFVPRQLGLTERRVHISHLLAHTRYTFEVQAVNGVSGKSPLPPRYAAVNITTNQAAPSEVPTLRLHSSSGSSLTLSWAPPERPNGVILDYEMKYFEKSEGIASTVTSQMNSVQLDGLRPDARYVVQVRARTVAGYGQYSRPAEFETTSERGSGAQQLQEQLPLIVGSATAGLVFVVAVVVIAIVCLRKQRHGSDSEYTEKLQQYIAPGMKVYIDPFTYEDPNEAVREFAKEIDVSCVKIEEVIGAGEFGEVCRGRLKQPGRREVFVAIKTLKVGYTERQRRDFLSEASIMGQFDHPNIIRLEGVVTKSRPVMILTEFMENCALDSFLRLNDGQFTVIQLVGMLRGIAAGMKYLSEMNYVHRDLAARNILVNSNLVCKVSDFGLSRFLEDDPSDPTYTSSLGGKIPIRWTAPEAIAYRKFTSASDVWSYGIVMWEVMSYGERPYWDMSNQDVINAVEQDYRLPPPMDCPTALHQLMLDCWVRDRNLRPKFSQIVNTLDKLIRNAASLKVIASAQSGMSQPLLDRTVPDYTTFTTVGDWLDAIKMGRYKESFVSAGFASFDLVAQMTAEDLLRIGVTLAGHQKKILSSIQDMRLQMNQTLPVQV
Chain of UniProt Q9UIK4 (whole entry, looked up): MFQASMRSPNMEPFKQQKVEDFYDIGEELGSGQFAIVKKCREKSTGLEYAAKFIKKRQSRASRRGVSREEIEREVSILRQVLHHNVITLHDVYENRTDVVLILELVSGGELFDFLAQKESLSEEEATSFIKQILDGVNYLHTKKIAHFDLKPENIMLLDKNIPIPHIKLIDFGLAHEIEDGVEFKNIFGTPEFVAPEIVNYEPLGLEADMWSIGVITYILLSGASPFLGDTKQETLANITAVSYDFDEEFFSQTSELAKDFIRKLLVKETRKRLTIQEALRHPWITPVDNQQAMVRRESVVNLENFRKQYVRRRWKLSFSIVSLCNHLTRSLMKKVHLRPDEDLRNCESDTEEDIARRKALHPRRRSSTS
Chain of UniProt Q92918 (whole entry, looked up): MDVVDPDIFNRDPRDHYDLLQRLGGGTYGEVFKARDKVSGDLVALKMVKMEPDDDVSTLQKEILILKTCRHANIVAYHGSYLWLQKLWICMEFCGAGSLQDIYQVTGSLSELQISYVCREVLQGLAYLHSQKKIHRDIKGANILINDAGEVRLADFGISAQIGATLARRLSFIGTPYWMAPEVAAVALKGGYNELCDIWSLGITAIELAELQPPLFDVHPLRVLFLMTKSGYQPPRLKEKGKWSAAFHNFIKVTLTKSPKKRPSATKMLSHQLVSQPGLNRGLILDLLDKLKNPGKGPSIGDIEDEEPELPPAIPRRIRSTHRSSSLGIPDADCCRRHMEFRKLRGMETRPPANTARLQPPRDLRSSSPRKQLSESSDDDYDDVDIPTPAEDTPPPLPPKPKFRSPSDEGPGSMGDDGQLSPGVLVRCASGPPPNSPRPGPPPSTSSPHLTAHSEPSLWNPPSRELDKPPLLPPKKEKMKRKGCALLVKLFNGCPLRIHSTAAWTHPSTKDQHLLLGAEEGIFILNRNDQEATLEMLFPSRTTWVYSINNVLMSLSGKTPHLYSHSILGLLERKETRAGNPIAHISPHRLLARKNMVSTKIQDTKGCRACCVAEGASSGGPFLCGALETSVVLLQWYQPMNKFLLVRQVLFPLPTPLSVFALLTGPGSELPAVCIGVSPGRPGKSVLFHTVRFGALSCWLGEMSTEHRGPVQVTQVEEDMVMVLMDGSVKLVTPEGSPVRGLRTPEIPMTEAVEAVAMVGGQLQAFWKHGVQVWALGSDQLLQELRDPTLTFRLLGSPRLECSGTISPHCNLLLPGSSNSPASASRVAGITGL

Series 1 — species: mouse; sample: microsomes or S9; tested at: 2 µM; time: 0.5 h; endpoint: remaining compound
O=C(Nc1c(O)c(Cl)cc(Cl)c1Cl)c1nc(=O)[nH][nH]1: 81%
OCCCNc1nc(N2CCN(c3ccccc3F)CC2)nc2ccccc12: 0.451%
CCCC1(C)NC(=O)N(CC(=O)N(CC(C)C)CC(C)C)C1=O (stereo not drawn): 8.22%
O=C(NCc1ccc(F)cc1)c1nc2c(cnn2-c2ccc(F)cc2)c(=O)[nH]1: 25.7%
Cc1ccc2cc(CNc3ccc4c(c3)C(=O)NC4)ccc2n1: 23.6%
Oc1ccc2c(c1)oc1c(C3=Cc4ccccc4OC3)c3c[nH]nc3nc12: 28%
C/C(=C\COc1ccc2ccc(=O)oc2c1)CC/C=C(\C)CCC(O)C(C)(C)O (stereo not drawn): 76.7%
COc1cc(=O)[nH]cc1C(=O)N1CCCCC1c1ccccc1 (stereo not drawn): 84%
O=C(Cn1cnc2c(nnn2-c2cccc(Cl)c2)c1=O)N1CCCc2ccccc21: 41.5%
Cc1ccc(/C(Br)=C/CN(C)C)cc1: 7.82%

Series 2 — organism: Leishmania donovani; effect on: parasite killing; strain: DD8; endpoint: inhibition
Compound: c1ccc(Oc2ccc(Nc3c4c(nc5ccccc35)CCC4)cc2)cc1
intracellular amastigotes; 80 µM, 24 h: 100%
intracellular amastigotes; 0.02 µM, 72 h: 8% and 4%
intracellular amastigotes; 40 µM, 72 h: 100%
promastigotes; 33.33 µM, 24 h: 99% and 100%
intracellular amastigotes; 8 µM, 72 h: 100%
promastigotes; 16.66 µM, 72 h: 100%
intracellular amastigotes; 0.2 µM, 72 h: 28% and 33%
intracellular amastigotes; 0.8 µM, 96 h: 74% and 75% and 71%

Series 3 — effect on: enzyme activity; action: inhibitor; tested at: 0.5 µM; reference: control; endpoint: remaining activity
Target: Tyrosine-protein kinase Lyn (LYN, Homo sapiens, UniProt P07948)
Chain of UniProt P07948 (whole entry, looked up): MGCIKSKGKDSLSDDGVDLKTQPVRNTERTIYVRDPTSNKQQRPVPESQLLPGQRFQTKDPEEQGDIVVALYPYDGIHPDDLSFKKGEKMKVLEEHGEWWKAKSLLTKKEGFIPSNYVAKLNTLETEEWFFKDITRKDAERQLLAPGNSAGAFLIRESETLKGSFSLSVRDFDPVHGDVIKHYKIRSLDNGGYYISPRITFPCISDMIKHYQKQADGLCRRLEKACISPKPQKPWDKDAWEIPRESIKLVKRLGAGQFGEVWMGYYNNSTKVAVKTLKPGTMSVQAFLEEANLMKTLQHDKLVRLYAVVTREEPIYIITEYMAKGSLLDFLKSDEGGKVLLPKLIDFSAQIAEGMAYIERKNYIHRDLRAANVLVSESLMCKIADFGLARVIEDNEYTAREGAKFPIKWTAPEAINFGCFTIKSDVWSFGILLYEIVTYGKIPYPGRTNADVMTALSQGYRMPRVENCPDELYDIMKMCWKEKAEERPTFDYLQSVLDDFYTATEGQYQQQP
COc1ccc(OC)c2c(=S)c3ccccc3[nH]c12: 106%
O=C(CCCc1ccc(-c2ccccc2F)cc1)Nc1ccc(O)cc1: 102%
Cn1c2ccccc2c2c3c(c4c5ccccc5n(CCC#N)c4c21)CNC3=O: 94.4%
Nc1ccc2ncnc(NCCc3ccc(Oc4ccccc4)cc3)c2c1: 103%
O=C(O)c1ccc2c3c1cccc3c(=O)n1c3ccccc3nc21: 101%
O=C1NC(=O)C(c2cn(CCCn3ccnc3)c3ccccc23)=C1Nc1ccccc1: 96.4%
Cc1cccc(-c2[nH]c(C(C)(C)C)nc2-c2ccc3c(c2)OCO3)n1: 99.2%
O=S(=O)(c1cccc2cnccc12)N1CCCNCC1: 106%
COc1cc2ncnc(Nc3ccc(Oc4ccccc4)cc3)c2cc1OC: 21.6%
CC(C)[C@H](CO)Nc1nc(Nc2cc(N)cc(Cl)c2)c2ncn(C(C)C)c2n1: 23.1%
Cn1sc(=O)n(Cc2ccccc2)c1=O: 90.8%
CNC(=O)c1cc(Oc2ccc(NC(=O)Nc3ccc(Cl)c(C(F)(F)F)c3)cc2)ccn1: 88.1%
CN(C)c1ccc(C=C2C(=O)Nc3ccccc32)cc1: 108%
Cc1nc(-c2ccccc2)c(-c2ccncc2)o1: 97.4%
O=C(Nc1cccc(Nc2cc(Nc3cccc(C(F)(F)F)c3)ncn2)c1)C1CC1: 102%

Series 4 — effect on: cell-free assay; method: competition with immobilised ligand; tested at: 1 µM; endpoint: remaining binding
Compound: NS(=O)(=O)c1cc(NC(=O)C2(c3ccccc3Cl)CC2)ccc1Oc1cccc(Cl)c1
Tyrosine-protein kinase ABL1, non-phosphorylated (ABL1, Homo sapiens, UniProt P00519, T315I): 82%
EGFR (Homo sapiens, UniProt P00533, G719C): 90%
DAPK2 (Homo sapiens, UniProt Q9UIK4): 100%
SYK (Homo sapiens, UniProt P43405): 70%
PIK3CA (Homo sapiens, UniProt P42336, E545A): 82%
MAP4K1 (Homo sapiens, UniProt Q92918): 66%
EPHB3 (Homo sapiens, UniProt P54753): 62%
ALK (Homo sapiens, UniProt Q9UM73): 85%
PIK3CA (Homo sapiens, UniProt P42336, H1047L): 98%

Some of these lines once more (series 2):
intracellular amastigotes; 40 µM, 72 h: 100%
promastigotes; 33.33 µM, 24 h: 99% and 100%
intracellular amastigotes; 8 µM, 72 h: 100%
